Published values collected from several papers.
Every numbered part comes from another study and shows a few of its results, in no order.
Chain of UniProt P11802 (whole entry, looked up): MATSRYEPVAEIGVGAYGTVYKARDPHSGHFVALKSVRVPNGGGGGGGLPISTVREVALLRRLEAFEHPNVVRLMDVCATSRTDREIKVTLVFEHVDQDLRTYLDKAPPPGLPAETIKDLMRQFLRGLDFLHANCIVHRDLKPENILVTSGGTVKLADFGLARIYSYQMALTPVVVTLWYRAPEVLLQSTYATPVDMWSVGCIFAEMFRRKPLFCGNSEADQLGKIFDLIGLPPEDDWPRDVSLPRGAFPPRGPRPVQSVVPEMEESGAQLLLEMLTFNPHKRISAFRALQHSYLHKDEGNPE
Chain of UniProt P42684 (whole entry, looked up): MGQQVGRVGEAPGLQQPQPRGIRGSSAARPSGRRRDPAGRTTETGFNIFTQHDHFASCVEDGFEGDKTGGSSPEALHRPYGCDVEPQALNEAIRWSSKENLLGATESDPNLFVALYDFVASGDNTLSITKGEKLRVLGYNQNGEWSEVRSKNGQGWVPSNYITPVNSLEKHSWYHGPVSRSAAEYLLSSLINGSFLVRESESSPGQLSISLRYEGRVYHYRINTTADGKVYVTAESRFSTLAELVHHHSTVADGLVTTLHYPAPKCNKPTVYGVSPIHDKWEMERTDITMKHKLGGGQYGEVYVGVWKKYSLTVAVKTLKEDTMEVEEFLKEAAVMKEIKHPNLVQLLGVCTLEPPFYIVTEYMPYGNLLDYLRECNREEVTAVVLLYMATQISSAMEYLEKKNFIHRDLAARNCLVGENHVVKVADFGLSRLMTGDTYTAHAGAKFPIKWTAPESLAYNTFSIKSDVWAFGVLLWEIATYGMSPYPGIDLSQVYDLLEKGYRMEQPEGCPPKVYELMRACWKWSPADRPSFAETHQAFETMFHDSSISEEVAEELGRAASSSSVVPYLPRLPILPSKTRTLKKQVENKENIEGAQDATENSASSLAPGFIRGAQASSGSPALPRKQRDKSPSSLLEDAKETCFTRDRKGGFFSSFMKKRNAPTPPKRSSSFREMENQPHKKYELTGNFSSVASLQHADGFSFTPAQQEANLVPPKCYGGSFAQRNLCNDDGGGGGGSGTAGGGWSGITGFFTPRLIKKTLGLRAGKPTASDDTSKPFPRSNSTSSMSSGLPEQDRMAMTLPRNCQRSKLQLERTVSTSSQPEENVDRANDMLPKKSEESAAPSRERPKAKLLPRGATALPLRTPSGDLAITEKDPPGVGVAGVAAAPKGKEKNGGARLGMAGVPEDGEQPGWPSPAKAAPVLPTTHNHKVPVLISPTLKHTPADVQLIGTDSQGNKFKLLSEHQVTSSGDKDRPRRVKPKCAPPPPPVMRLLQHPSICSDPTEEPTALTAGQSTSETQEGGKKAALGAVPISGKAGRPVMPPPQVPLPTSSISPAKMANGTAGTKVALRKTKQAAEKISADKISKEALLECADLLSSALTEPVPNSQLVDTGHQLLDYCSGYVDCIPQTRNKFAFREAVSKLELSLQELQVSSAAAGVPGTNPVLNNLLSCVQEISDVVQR
Chain of UniProt P29376 (whole entry, looked up): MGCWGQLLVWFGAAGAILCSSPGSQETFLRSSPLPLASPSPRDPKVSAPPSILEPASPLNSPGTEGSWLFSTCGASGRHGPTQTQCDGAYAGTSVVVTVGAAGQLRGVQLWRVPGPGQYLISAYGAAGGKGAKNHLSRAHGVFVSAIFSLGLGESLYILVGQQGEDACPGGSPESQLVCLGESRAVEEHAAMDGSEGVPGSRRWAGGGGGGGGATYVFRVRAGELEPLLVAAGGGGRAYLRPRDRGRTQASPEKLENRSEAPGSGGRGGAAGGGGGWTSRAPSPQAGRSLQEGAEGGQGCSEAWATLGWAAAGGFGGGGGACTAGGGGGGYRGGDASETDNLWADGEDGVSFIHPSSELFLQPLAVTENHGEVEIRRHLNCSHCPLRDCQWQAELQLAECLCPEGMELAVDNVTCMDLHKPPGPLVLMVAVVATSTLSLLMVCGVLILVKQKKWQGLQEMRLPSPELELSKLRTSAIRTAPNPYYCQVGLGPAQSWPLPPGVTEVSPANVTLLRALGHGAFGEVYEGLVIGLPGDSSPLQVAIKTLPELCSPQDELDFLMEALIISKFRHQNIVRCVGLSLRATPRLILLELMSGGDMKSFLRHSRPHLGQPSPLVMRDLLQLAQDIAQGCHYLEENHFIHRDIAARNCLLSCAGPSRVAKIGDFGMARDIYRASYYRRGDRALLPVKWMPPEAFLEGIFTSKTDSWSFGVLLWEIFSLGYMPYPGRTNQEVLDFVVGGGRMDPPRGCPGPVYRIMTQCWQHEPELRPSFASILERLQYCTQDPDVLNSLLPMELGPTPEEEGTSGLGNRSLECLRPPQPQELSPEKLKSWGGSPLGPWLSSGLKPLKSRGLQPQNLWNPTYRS
Chain of UniProt O43293 (whole entry, looked up): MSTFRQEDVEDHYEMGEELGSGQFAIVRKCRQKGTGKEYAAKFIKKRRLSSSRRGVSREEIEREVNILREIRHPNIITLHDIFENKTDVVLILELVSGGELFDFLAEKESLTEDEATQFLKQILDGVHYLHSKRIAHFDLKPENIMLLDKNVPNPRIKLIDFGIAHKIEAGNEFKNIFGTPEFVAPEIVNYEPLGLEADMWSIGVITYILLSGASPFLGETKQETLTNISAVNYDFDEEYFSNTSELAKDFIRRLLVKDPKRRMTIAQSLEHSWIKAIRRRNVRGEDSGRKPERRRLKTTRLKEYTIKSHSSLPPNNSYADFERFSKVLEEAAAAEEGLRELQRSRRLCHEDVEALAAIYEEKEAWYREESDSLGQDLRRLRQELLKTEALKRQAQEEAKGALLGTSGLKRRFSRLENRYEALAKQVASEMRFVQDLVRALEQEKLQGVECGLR
Chain of UniProt Q8WXR4 (whole entry, looked up): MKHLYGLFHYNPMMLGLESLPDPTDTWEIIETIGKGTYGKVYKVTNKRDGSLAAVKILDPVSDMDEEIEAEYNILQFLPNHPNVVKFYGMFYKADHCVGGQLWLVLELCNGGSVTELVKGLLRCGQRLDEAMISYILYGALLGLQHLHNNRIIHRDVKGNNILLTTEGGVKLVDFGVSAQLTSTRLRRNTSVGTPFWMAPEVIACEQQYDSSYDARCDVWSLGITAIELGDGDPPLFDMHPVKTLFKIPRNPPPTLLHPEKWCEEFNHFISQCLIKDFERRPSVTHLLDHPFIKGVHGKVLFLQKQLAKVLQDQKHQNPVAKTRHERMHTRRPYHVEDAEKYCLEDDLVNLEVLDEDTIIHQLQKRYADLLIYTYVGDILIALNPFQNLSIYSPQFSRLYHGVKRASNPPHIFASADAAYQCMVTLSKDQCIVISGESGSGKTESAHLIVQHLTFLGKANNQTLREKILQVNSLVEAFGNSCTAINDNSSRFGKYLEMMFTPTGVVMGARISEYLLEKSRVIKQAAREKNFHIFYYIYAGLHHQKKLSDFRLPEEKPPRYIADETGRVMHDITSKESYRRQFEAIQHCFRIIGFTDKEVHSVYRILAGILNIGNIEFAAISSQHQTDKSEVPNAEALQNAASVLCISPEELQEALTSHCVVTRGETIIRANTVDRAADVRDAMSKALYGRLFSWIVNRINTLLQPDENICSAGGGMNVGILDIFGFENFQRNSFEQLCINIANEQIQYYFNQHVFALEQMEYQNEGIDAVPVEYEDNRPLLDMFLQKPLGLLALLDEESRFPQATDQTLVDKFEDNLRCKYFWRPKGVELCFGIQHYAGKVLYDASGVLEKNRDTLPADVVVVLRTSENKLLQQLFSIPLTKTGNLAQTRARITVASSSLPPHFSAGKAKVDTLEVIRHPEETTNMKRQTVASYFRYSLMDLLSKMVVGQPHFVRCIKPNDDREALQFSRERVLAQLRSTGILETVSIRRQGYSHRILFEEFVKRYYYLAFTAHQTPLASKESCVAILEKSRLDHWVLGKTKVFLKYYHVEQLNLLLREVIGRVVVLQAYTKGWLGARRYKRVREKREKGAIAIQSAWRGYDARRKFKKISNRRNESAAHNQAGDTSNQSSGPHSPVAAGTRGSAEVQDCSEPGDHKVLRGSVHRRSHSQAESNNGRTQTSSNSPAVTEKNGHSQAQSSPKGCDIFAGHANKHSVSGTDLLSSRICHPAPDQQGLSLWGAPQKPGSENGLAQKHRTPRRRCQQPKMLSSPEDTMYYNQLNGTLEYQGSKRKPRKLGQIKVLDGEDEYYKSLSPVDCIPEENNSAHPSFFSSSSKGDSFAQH

Block 1
Cell line: mouse MPNST tumor cells
Technique: high-content nuclear imaging
Refers to: cell number
Tested at: 10 µM
Time: 12 h
Setting: mean of 2 replicates
Reference: plate mean
Direction: higher = more cells
SMILES | nuclei count [z-score]
Cc1cccc(Nc2ccccc2C(=O)O)c1C | 0.432
OCCC#Cc1nc(-c2ccc(F)cc2)c(-c2ccncc2)n1CCCc1ccccc1 | 1.7
Cc1ccccc1N1C(=O)c2cc(S(N)(=O)=O)c(Cl)cc2NC1C (centres unmarked) | -0.473
NNC(=O)CSc1nc2scc(-c3ccccc3)c2c(=O)n1-c1ccccc1 | 0.856
CC(NCCC(c1ccccc1)c1ccccc1)c1ccccc1 (centres unmarked) | -6.47

Block 2
SMILES: CS(=O)(=O)NCC[C@H](NC(=O)c1cncc2c1cnn2-c1ccc(F)cc1)c1ccnc(S(C)(=O)=O)c1
Technique: competition with immobilised ligand
Tested at: 1 µM
target | effect on | remaining binding
Death-associated protein kinase 3 (DAPK3, Homo sapiens, UniProt O43293) | cell-free assay | 100%
Cyclin-dependent kinase 4, with cyclin D3 (CDK4, Homo sapiens, UniProt P11802) | cell-free assay | 95%
Wee1-like protein kinase 2 (WEE2, Homo sapiens, UniProt P0C1S8) | cell-free assay | 100%
Leukocyte tyrosine kinase receptor (LTK, Homo sapiens, UniProt P29376) | cell-free assay | 100%
MAP kinase-interacting serine/threonine-protein kinase 1 (MKNK1, Homo sapiens, UniProt Q9BUB5) | cell-free assay | 95%
Myosin-IIIb (MYO3B, Homo sapiens, UniProt Q8WXR4) | binding | 100%
Tyrosine-protein kinase ABL2 (ABL2, Homo sapiens, UniProt P42684) | cell-free assay | 93%
Receptor-type tyrosine-protein kinase FLT3 (FLT3, Homo sapiens, UniProt P36888, D835Y) | cell-free assay | 97%

Block 3
Organism: Sarcocystis neurona
Effect on: parasite growth
Tested at: 10 µM
Time: 96 h
Setting: second screen
Reference: untreated
SMILES | log2 fold change
C[C@@H](c1ncncc1F)[C@](O)(Cn1cncn1)c1ccc(F)cc1F | 0.31
Clc1ccc2c(c1)C(N1CCNCC1)=Nc1ccccc1O2 | 0.22
CC(c1cc2ccccc2s1)N(O)C(N)=O (centres unmarked) | 0.73
Cc1ccc(N(CC2=NCCN2)c2cccc(O)c2)cc1 | 0.29
CCc1oc2ccccc2c1C(=O)c1cc(Br)c(O)c(Br)c1 | -0.0261
CC(=O)CC(c1ccccc1)c1c(O)c2ccccc2oc1=O (centres unmarked) | 0.3
Oc1ccc(/C=C/c2cc(O)cc(O)c2)cc1 | 0.2

Block 4
Target: Megakaryocyte-associated tyrosine-protein kinase (MATK, Homo sapiens, UniProt P42679)
Chain of UniProt P42679 (whole entry, looked up): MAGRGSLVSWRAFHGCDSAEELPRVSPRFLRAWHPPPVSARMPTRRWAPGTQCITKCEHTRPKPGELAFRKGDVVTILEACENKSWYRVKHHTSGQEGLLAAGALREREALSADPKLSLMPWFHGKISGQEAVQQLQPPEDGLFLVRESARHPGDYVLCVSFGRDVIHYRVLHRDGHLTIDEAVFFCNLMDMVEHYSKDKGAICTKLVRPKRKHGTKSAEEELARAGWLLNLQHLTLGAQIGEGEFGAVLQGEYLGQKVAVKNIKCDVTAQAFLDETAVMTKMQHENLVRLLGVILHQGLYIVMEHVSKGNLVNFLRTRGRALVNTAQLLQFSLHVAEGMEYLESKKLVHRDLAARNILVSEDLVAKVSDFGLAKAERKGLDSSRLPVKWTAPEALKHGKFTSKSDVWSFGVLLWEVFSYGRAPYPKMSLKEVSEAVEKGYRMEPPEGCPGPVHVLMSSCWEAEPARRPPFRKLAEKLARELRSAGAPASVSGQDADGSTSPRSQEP
Effect on: enzyme activity
Action: inhibitor
Tested at: 0.5 µM
Reference: control
Compound | remaining activity
Cc1nc(-c2ccccc2)c(-c2ccncc2)o1 | 90.3%
Oc1ccc(-c2nc(-c3ccncc3)c(-c3ccc(F)cc3)[nH]2)cc1 | 90.3%
Cc1ccc(NC(=O)c2ccc(CN3CCN(C)CC3)cc2)cc1Nc1nc(-c2cccnc2)cs1 | 85.9%
COc1cc2ncnc(Nc3ccc(F)c(Cl)c3)c2cc1OCCCN1CCOCC1 | 86.4%
O=S(=O)(c1cccc2cnccc12)N1CCCNCC1 | 99.6%
O=C(O)c1ccc2c3c1cccc3c(=O)n1c3ccccc3nc21 | 94%
O=C1NC(=O)C(c2cn(CCCO)c3ncccc23)=C1c1cnccn1 | 95.5%
Cc1cccc(-c2[nH]c(C(C)(C)C)nc2-c2ccc3c(c2)OCO3)n1 | 100%
N#CC(C#N)=C(N)/C(C#N)=C/c1ccc(O)cc1 | 92.5%
C#Cc1cccc(Nc2ncnc3cc(OCCOC)c(OCCOC)cc23)c1 | 77.2%
Cc1ccc(Nc2nccc(N(C)c3ccc4c(C)n(C)nc4c3)n2)cc1S(N)(=O)=O | 104%
Nc1ccc2ncnc(NCCc3ccc(Oc4ccccc4)cc3)c2c1 | 89.6%
NCCNc1ncc(C(N)=O)c(Nc2cccc(C(F)(F)F)c2)n1 | 94.5%
O=C(CCCc1ccc(-c2ccccc2F)cc1)Nc1ccc(O)cc1 | 92.2%
Nc1[nH]nc2nc3ccccc3nc12 | 91.9%

Some of these lines once more (block 4):
Compound | remaining activity
N#CC(C#N)=C(N)/C(C#N)=C/c1ccc(O)cc1 | 92.5%
COc1cc2ncnc(Nc3ccc(F)c(Cl)c3)c2cc1OCCCN1CCOCC1 | 86.4%
NCCNc1ncc(C(N)=O)c(Nc2cccc(C(F)(F)F)c2)n1 | 94.5%
